{"data": "Experimental data collected from several papers", "CDK2 with cyclin A": "Cyclin-dependent kinase 2, with cyclin A (CDK2, Homo sapiens, UniProt P24941)", "MBLAC2": "MBLAC2 (Homo sapiens, UniProt Q68D91)", "note": "Compare with care: the assays were run in different laboratories. Values joined by “and” are separate records of one study, mostly repeats; a detail may differ. ± gives the spread as reported.", "sequence of UniProt Q68D91 (whole entry, looked up)": "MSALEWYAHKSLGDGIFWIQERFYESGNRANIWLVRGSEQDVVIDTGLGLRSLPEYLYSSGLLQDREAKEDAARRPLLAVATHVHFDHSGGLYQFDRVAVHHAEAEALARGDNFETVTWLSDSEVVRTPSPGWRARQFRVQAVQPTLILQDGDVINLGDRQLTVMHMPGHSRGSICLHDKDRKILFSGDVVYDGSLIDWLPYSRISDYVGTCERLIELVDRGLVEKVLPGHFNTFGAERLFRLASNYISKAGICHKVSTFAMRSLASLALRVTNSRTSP", "sequence of UniProt A4D1P6 (whole entry, looked up)": "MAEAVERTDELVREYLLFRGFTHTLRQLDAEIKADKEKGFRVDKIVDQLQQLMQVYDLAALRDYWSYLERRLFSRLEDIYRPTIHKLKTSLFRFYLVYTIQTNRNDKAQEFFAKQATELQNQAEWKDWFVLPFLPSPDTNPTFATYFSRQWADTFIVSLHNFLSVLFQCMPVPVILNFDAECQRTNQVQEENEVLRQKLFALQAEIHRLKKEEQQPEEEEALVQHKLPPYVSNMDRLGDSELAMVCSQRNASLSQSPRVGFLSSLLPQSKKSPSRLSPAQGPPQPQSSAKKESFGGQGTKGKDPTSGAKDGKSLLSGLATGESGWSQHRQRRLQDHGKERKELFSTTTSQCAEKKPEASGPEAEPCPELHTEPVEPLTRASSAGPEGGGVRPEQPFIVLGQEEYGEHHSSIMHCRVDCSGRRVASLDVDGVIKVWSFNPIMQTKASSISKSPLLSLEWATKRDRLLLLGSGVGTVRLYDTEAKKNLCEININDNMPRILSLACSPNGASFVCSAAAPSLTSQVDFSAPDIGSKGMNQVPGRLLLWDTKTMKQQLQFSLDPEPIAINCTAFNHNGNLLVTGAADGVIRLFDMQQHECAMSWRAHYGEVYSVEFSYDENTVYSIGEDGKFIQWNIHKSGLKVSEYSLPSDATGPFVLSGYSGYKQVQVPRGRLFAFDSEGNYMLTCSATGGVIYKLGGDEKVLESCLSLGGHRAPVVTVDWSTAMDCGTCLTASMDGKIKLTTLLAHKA", "sequence of UniProt Q9GZZ1 (whole entry, looked up)": "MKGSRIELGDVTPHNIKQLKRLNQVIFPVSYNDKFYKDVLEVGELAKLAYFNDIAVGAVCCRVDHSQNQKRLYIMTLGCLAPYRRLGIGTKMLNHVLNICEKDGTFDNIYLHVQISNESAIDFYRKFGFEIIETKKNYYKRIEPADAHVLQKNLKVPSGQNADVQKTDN"}
{"Structure (SMILES)": "O=S(=O)(NCc1ccccn1)c1ccc(Cl)c(Cl)c1Cl", "target": "CDK2 with cyclin A", "Kd": "> 100 µM"}
{"Structure (SMILES)": "CC(C)(COP(=O)(O)OP(=O)(O)OC[C@H]1O[C@@H](n2cnc3c(N)ncnc32)[C@H](O)[C@@H]1OP(=O)(O)O)[C@@H](O)C(=O)NCCC(=O)NCCS", "target": "N-alpha-acetyltransferase 50 (Homo sapiens, UniProt Q9GZZ1)", "test": "competition pulldown MS", "test system": "SW-620 cell lysate", "Kd": "4.24 µM"}
{"Structure (SMILES)": "CCOc1ccc2nc(SCC(=O)Nc3c(C)n(C)n(-c4ccccc4)c3=O)sc2c1", "target": "CDK2 (Homo sapiens, UniProt P24941)", "test": "binding", "Kd": "> 100 µM"}
{"Structure (SMILES)": "CN1CCc2c(c3ccccc3n2Cc2ccc(C(=O)NO)cc2)C1", "target": "MBLAC2", "test": "inhibitor, competition pulldown", "test system": "SW620 and MV4-11 lysate", "conditions": "1 h", "Kd": "0.489 µM"}
{"Structure (SMILES)": "O=S(=O)(O)C[C@H](O)CO", "target": "Uncharacterized protein (Pelagibacter ubique, UniProt Q4FMA9)", "test": "binding, isothermal titration calorimetry", "test system": "Candidatus Pelagibacter ubique", "conditions": "with: CaCl2 10 mM", "Kd": "4.94 ± 1.36 µM"}
{"Structure (SMILES)": "CCN(CC)Cc1ccc2cc(COC(=O)Nc3ccc(C(=O)NO)cc3)ccc2c1", "target": "MBLAC2", "test": "inhibitor, competition pulldown", "test system": "SW620 and MV4-11 lysate", "conditions": "1 h", "Kd": "1.81 µM"}
{"Structure (SMILES)": "Cc1c(NC(=O)C2CCCN2S(=O)(=O)c2ccccc2)c(=O)n(-c2ccccc2)n1C (stereo not drawn)", "target": "CDK2 with cyclin A", "Kd": "> 100 µM"}
{"Structure (SMILES)": "Nc1cc(F)ccc1NC(=O)c1ccc(CNC(=O)/C=C/c2cccnc2)cc1", "target": "MBLAC2", "test": "inhibitor, competition pulldown", "test system": "SW620 and MV4-11 lysate", "conditions": "1 h", "Kd": "> 30.2 µM"}
{"Structure (SMILES)": "N#Cc1cccc2c1CC[C@H]2NC(=O)c1ccc(Nc2ncnc3ccccc23)cc1", "target": "WD repeat-containing protein 91, residues 392–747 (Homo sapiens, UniProt A4D1P6)", "test": "SPR", "Kd": "4.5 µM and 4.2 µM"}
{"note": "For quick reference, copied from above:"}
{"Structure (SMILES)": "O=S(=O)(O)C[C@H](O)CO", "target": "Uncharacterized protein (Pelagibacter ubique, UniProt Q4FMA9)", "test": "binding, isothermal titration calorimetry", "test system": "Candidatus Pelagibacter ubique", "conditions": "with: CaCl2 10 mM", "Kd": "4.94 ± 1.36 µM"}
